# Published values of several laboratories.
# Numbered parts are unrelated; each lists some results of a single study. Values joined by “and” are separate records of one study, mostly repeats; a detail may differ. Substitutions count along the parent as printed.
# Chain of UniProt O95819 (whole entry, looked up): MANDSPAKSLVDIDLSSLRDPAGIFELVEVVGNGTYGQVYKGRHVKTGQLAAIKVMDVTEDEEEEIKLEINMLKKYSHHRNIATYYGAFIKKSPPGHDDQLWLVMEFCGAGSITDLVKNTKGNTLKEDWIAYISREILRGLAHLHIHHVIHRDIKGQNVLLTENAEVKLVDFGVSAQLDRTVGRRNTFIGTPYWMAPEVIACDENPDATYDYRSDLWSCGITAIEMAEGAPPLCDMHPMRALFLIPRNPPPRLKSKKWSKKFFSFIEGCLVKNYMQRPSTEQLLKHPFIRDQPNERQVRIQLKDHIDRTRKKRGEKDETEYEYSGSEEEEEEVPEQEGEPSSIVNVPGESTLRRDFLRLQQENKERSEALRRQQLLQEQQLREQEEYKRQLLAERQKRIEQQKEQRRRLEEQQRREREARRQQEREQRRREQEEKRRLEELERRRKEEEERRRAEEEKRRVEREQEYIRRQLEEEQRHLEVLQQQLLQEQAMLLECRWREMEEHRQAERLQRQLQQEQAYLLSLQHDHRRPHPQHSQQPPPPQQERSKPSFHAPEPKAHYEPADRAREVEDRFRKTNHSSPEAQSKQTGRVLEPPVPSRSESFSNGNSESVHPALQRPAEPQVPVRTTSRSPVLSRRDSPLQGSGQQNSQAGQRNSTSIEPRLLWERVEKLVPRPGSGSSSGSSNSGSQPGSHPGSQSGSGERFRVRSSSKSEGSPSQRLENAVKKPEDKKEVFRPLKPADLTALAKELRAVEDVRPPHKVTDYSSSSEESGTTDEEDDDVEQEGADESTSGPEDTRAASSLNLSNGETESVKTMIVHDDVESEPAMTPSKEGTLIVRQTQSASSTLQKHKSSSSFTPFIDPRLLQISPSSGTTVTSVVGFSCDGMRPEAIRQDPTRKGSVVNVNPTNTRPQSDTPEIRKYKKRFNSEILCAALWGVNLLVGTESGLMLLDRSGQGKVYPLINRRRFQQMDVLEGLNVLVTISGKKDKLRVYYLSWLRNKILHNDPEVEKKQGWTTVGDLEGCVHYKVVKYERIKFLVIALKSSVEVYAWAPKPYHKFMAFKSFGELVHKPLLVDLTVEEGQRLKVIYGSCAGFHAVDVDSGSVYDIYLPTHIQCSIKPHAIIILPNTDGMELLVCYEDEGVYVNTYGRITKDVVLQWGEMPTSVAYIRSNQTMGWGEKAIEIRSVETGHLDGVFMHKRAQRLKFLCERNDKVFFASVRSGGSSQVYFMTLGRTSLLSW

# Series 1
# Target: Centromere-binding protein 1, full length, His-tagged (CBF1, Saccharomyces cerevisiae, UniProt P17106, residues 1-351)
# Chain of UniProt P17106 (whole entry, looked up): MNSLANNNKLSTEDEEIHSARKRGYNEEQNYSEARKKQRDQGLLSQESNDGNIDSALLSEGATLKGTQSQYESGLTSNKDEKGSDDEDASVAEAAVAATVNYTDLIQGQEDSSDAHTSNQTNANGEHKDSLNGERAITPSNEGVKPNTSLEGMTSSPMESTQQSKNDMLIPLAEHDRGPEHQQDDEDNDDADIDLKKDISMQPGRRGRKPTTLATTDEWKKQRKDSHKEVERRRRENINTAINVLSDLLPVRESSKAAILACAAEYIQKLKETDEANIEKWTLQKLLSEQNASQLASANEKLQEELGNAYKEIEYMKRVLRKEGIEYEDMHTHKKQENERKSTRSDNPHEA
# Method: competition protein-binding microarray
# Molecule type: double-stranded DNA, one strand shown
# Matrix: in vitro
# Tested at: 2 µM
# Setting: whole 60-bp probe, lowest competitor level
# Together with: Pho4 competitor, 0.05 µM
# Reading: higher = stronger binding
# All sequences stand within: … GTCTTGATTCGCTTGACGCTGCTG
Oligonucleotide,fluorescence intensity
AAATTACTAAGTTGTGCTGTGGGTGACGCCGTATGA,61.8 a.u.
GGGAAATAGACGTCGCACACGCCGAAGTATGTGTCC,72 a.u.
CTTCTGTAAATTTTTCACGTGCGATGACGCGCCCCG,724 a.u.
CGCGCCACTGCTACTCATGTGCTGCAAACTAACAGT,93.2 a.u.
CGTCCTAGTGATTTTCACGTGATTTCCATGAGGAAG,4790 a.u.
AGGAGGGGAATTACCGGCGTGGCCGATATTCCTTAT,84 a.u.
AGGCACCATTCATTTGTCGTGGCCGCAATGTGTCCC,55.7 a.u.
GGCGTCGCTAGCTGGCACGGCACTGATTGCGGCGGG,72.8 a.u.

# Series 2
# Target: Interferon regulatory factor 5, full length, phosphomimetic (IRF5, Homo sapiens, UniProt Q13568-2, residues 1-514, S451D/S453D/S456D/S462D)
# Method: protein-binding microarray
# Molecule type: double-stranded DNA, one strand shown
# Matrix: in vitro
# Tested at: 940 nM top
# Setting: 60-bp whole probe
# Together with: salmon DNA 0.4 mg/ml
# Baseline: random background probes
# Reading: higher = stronger binding
# All sequences stand within: GCCTAGCAC … GTGCTAGGTCTTGATTCGCTTGACGCTGCTG
Oligonucleotide,fitted relative affinity [z-score]
TTAGGTTGCGGACTGGGTTA,-0.0175
TTGCTTGTGTTTATTGTGAC,0.244
CACGGACTGGGTATCGGGAC,0.887
GACGGTATCGATCTCGGGAC,7.27
TCATCTCTTGTTCTCTCACT,2.07
GACGGTATCCTTTTCTTGAC,0.796
TGAGATTTCAGTTCCGATTA,1.58
TCATGACTCTTTCTGTCACT,0.911

# Series 3
# Target: Myc proto-oncogene protein, bHLH-zipper, MAX partner unstated (MYC, Homo sapiens, UniProt P01106, residues 368-449)
# Chain of UniProt P01106 (368-449, looked up): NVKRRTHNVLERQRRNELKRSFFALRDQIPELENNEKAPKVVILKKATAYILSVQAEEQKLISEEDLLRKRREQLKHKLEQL
# Method: protein-binding microarray
# Molecule type: double-stranded DNA, one strand shown
# Matrix: in vitro
# Tested at: not given
# Setting: k-mer, scored over probes, only values ≥0.25
# Reading: higher = stronger binding
Oligonucleotide,E-score
ATGCGTTA,0.27
ACGTGTAC,0.399
AAGTGTGC,0.253
AACGCATG,0.462
GCATGCCA,0.393
ACGCTACG,0.31
GCAGCGCA,0.304
AGCATATG,0.309

# Series 4
# Target: CCNF, cyclin fold, Cln2 fusion (human)
# Method: yeast growth competition, sequencing
# Matrix: yeast
# Setting: strong parent motif
# Baseline: not given
# Reading: higher = stronger binding
# Starting sequence: viral docking peptide; YKVKRRLVFGADD
Variant,normalised enrichment score
YKVCRRLVFGADD [K4C],8.72
YKVKRPLVFGADD [R6P],6.68
YKVKRILVFGADD [R6I],8.18
YKKKRRLVFGADD [V3K],4.29
YKNKRRLVFGADD [V3N],6.35
YKVKRRLVFPADD [G10P],8.24
YKVKRRLPFGADD [V8P],6.65
YKFKRRLVFGADD [V3F],8.46
YKVKRRLVFGNDD [A11N],8.63
YKVKRELVFGADD [R6E],7.16
YKVKRRQVFGADD [L7Q],0.452
YKVKRRLVFLADD [G10L],8.38
YKVKRRLVFGAND [D12N],9.19
YKVKRRLYFGADD [V8Y],9.08
YKVKKRLVLGADD [R5K F9L],6.64
YKRKRRLVFGADD [V3R],6.03
YKVKRRLVFWADD [G10W],9.37
YKVKIRLVFGADD [R5I],3.66
YKVKQRLVFGADD [R5Q],5.66
YKVKRALVFGADD [R6A],8.93
YKVKFRLVFGADD [R5F],1.04
YSVKRRLVFGADD [K2S],7.93
YKVKRRLVFEADD [G10E],8.15
YKVKRRLVKGADD [F9K],0.765
YKVKRRLVFGAWD [D12W],9.03

# Other studies, line by line
SMILES,tested on,read-out,method,tested at,together with,measurement,result
Cn1cncc1[C@@](O)(COc1ccc(C#N)cc1-c1ccc(OC(F)(F)F)cc1)c1ccc(C#N)cc1,"MAP4K4 (Homo sapiens, UniProt O95819)",cell-free assay,competition with immobilised ligand,1 µM,,remaining binding,100%
CC[C@H](C)c1nc2cc(Nc3ccnc4ccc(S(=O)(=O)C(C)C)cc34)ccc2s1.Cl,HT-29,necroptosis protection,CCK-8,0.625 µM,TNF-α SMAC mimetic zVAD,viability,14% and 19.8% and 13% and 25.4%

# Excerpt of the above (series 3):
Oligonucleotide,E-score
ATGCGTTA,0.27
ACGTGTAC,0.399
AAGTGTGC,0.253
AACGCATG,0.462
GCATGCCA,0.393
ACGCTACG,0.31
GCAGCGCA,0.304
